Assay results of several laboratories.
Numbered parts are unrelated; each lists some results of a single study. Changes are numbered by the printed parent chain.

Series 1 — target: CCNB2, cyclin fold, Cln2 fusion (human); technique: yeast growth competition, sequencing; medium: yeast; notes: weak parent motif; reference: not given; reading: higher = stronger binding
Starting sequence: CDKN1B docking peptide (human); PSACRNLFGPVDH; partner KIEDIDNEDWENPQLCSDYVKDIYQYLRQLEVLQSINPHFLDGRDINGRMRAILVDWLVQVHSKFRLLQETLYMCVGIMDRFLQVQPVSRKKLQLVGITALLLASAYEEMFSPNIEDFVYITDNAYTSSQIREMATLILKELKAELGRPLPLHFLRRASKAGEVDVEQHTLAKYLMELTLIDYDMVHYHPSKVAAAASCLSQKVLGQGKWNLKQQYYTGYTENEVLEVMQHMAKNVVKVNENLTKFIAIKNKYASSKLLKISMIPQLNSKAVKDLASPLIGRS
Change	normalised enrichment score
PSACRNLFGRVDH [P10R]	0.12
PSACRNLFGEVDH [P10E]	-0.197
PSACRNLFGPVDC [H13C]	-0.146
PSACRNEFGPVDH [L7E]	-0.0783
PSACRNLFGPVDN [H13N]	-0.0487
PSACRNLFLPVDH [G9L]	0.196
PSACQNLFGPVDH [R5Q]	-0.553
PSACRNLFYPVDH [G9Y]	0.536
PSASRNLFGPVDH [C4S]	0.0741
SSACRNLFGPVDH [P1S]	-0.247
PSACRNLRGPVDH [F8R]	0.477
PSACRNLFGPLDH [V11L]	-0.0233
PSAARNLFGPVDH [C4A]	0.143
PSACKNLLGPVDH [R5K F8L]	-0.0244
PSNCRNLFGPVDH [A3N]	0.206
PSACRNLFGPVFH [D12F]	0.0962
PSANRNLFGPVDH [C4N]	-0.142
PSACCNLFGPVDH [R5C]	-0.462
PQACRNLFGPVDH [S2Q]	-0.227
PSAPRNLFGPVDH [C4P]	-0.0249
PKACRNLFGPVDH [S2K]	0.43
PSACRNPFGPVDH [L7P]	-0.244
PSACRNLFGPVDQ [H13Q]	0.0563
PSSCRNLFGPVDH [A3S]	-0.0096
PSACRNHFGPVDH [L7H]	0.292

Series 2 — target: MAFF, bZIP domain (human); technique: DHFR protein complementation; medium: yeast; reference: wild-type JUN-FOS pair; reading: higher = stronger binding
Notes: single substitutions, most at no-binding floor
Starting sequence: JUN, bZIP domain (human); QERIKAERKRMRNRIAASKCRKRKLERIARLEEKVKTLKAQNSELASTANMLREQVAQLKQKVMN; partner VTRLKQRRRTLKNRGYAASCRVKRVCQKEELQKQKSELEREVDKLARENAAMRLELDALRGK
Change	binding fitness [natural log]
A49M	-1.47
Q55V	-1.43
A40V	-1.29
A49F	-1.46
V35W	-1.46
Q41T	-1.47
K34T	-1.48
E54S	-1.47
M51Q	-1.23
R53W	-1.49
Q41I	-1.51
N42Q	-1.04
A40Q	-1.13
L31G	-1.49
K34G	-1.45
L45H	-1.48
I28L	-1.4
K39I	-1.52
L31K	-1.48
A29L	-1.51
E54V	-1.41
Q41E	-1.45
T48R	-1.48
K39C	-1.47
T37P	-1.47

Series 3 — technique: protein-binding microarray; form: double-stranded DNA, one strand shown; medium: in vitro; tested at: 250 nM; notes: 60-bp whole probe; with: salmon DNA 0.4 mg/ml; reference: random background probes; reading: higher = stronger binding; constant ends, left off below: GCCTAGCAC … GTCTTGATTCGCTTGACGCTGCTG
Target: Interferon regulatory factor 5, full length, phosphomimetic (IRF5, Homo sapiens, UniProt Q13568-2, residues 1-514, K96S/S451D/S453D/S456D/S462D)
Sequence	log fluorescence [z-score]
GTAGGTTTCGGTTTCGGTTAGTGCTAG	11.8
TCAACTCTCTCCATGTGACTGTGCTAG	-0.0833
TTAGAACTGAGTCTCGATTTGTGCTAG	0.61
TCACTTTCACTTCTCCCACTGTGCTAG	9.23
ATCATTTTCTCTGTTCTAGAGTGCTAG	2.24
GACGGCATCGACTTTCGGGACGTGCTA	5.09
CACGATATCAGTATCGAGACGTGCTAG	3.08
TTGGATTTCAGACTGGATTAGTGCTAG	0.219
GACGGTTTCTACACTGGGGACGTGCTA	0.625
TTAGGACTAGGACTGGGTTAGTGCTAG	-0.428
ATAGGACTGGACTTTCGGTTAGTGCTA	9.61
TTAGGTTTCGACAATGGGTTAGTGCTA	6.22
TTAGCTTTCGGTTTCGGTTAGTGCTAG	12.3
GTCATTCTCAACCCTGGTGCTGTGCTA	-0.0313
TTCACTATTGCTTCCTCTTTGTGCTAG	1.35
GACGGACTGGACTAGCGGGACGTGCTA	-0.871
GACGATTTCAGTTTGGAGACGTGCTAG	1.35
GCTCCTTCCCCTCTAGGTCTGTGCTAG	-0.0456
TTAGGACTGGGACTGTGTTAGTGCTAG	-0.744
TCATCCTCCTCTCTCTTACTGTGCTAG	0.429
TTAGGACTGCTTTTCCTTCAGTGCTAG	0.00913
TTAGGACTGGACTATCGGTTAGTGCTA	5.71
TTGGCTTTCCTTTATGTCCTGTGCTAG	0.459
GAGGATATCAGTATCGAGACGTGCTAG	2.62
TTAGATATCGGGACTGGATAAGTGCTA	1.17

Series 4 — technique: DHFR PCA, deep sequencing; medium: yeast; with: (+)-ABA 0.032 µM; reference: wild-type fitted maximum; reading: higher = stronger binding
Target: ABI1, truncated, D143A, DHFR fusion (Arabidopsis thaliana)
Notes: methotrexate growth selection, single substitutions
Starting sequence: PYL1, truncated, DHFR fusion (Arabidopsis thaliana); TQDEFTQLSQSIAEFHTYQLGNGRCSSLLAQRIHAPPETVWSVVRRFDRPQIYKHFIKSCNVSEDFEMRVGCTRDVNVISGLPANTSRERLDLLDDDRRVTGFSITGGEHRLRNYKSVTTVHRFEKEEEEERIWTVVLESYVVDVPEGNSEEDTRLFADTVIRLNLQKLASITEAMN; partner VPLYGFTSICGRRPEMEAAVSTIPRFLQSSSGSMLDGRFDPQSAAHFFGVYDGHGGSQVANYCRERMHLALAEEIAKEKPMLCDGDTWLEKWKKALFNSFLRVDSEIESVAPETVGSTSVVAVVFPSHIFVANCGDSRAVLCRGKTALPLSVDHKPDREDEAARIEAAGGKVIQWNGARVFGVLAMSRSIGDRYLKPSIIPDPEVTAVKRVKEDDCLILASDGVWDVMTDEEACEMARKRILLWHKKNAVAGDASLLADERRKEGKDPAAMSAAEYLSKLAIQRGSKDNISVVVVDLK
Change	relative binding score
I105P	-8.22%
R88E	9.61%
Y18K	-2.88%
W134V	12.2%
F157G	-3.9%
H34T	1.88%
E67N	15%
G81E	4.95%
R45I	-8.25%
R49G	1.52%
I133Y	8.6%
D92W	-3.72%
K126V	38.9%
D92T	1.14%

Series 5 — technique: universal PBM; form: double-stranded DNA, one strand shown; medium: in vitro; tested at: 600 nM; reading: higher = stronger binding
Target: Sal-like protein 4, full length isoform A (SALL4, Homo sapiens, UniProt Q9UJQ4, residues 1-1053)
Sequence of UniProt Q9UJQ4 (whole entry, looked up): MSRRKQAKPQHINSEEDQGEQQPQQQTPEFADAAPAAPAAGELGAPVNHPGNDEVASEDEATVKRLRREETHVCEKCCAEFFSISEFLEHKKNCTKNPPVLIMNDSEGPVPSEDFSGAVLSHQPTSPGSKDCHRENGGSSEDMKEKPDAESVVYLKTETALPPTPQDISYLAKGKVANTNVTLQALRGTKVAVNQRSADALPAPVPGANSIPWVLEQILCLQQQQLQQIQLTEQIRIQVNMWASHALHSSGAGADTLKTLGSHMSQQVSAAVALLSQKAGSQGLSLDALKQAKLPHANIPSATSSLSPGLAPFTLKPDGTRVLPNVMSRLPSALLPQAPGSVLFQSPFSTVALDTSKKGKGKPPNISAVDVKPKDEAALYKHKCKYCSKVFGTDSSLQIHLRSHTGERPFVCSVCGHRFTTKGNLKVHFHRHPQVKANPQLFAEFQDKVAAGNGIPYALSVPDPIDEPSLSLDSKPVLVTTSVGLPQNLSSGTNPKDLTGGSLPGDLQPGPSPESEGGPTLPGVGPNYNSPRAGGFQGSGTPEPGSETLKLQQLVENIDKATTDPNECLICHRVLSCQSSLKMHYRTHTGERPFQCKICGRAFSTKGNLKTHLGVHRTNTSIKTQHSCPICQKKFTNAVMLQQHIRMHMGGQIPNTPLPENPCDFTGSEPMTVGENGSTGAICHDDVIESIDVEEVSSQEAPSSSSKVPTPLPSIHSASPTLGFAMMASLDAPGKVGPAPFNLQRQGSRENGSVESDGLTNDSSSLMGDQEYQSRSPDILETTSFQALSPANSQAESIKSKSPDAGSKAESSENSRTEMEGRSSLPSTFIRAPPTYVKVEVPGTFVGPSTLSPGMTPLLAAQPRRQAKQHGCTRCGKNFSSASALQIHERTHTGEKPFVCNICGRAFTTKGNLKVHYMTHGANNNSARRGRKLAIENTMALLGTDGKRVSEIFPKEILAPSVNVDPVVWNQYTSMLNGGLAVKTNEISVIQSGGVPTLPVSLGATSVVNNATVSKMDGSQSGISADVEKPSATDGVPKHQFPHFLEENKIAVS
Notes: 8-mer, flanks averaged, mean of replicates
Sequence	E-score
ATTGTAAA	0.321
CCATGTAG	0.00281
CCTCGCAA	-0.0468
CACTGTGC	-0.126
AACATGTG	0.226
AAGCATGA	0.0715
TGAGATCA	-0.0735
AACAGAGG	-0.0933
ACCCCTAA	-0.222
GACATCTA	0.17
AACGGCTG	-0.167
GCCCAGCA	-0.309
ATCAAGAC	-0.012
GGCACTCA	-0.13
CAAGGTTC	-0.11
CGTTAATA	0.271
CACCTTTA	0.0488
AGCATTCG	-0.0868
ATCGGTCA	0.00588
GCTAACTA	0.11
GAAGTACA	0.068
GACGGTAC	0.0264
CTATCCAG	-0.03
CACTAACA	0.107

Series 6 — technique: protein binding microarray; form: double-stranded DNA, one strand shown; medium: in vitro; tested at: not given; reference: not given; reading: higher = stronger binding
Target: Histone acetyltransferase KAT6A, winged helix 2, GST fusion (KAT6A, Homo sapiens, UniProt Q92794, residues 85-181)
Notes: 8-mer, flanks averaged, mean of 2 arrays, mostly near background
Residues (chain): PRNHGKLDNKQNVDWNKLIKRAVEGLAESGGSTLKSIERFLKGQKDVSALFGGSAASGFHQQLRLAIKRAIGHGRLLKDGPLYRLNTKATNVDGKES
Sequence	E-score
TGCGCAAA	0.0964
AAGTAACG	-0.151
ACAATCCT	-0.0556
TCGGAGAA	0.122
CCCGGAAA	0.0867
AACGTCGT	-0.199
ACGGATTC	-0.0535
ATAGGGCA	-0.166
GCCTGACC	0.0677
GCGTATCC	0.0166
AAAGTAGG	-0.0822
GGTTGGGA	-0.0595
AGGCGTCC	0.0604
ACATGTGA	-0.306
CAATGAAA	-0.0427
GCCATGAA	0.104
CTGCCCGC	0.176
ATCGTATG	-0.101
AAGTTACT	-0.0898

Series 7 — technique: RNA Bind-n-Seq; form: RNA; medium: in vitro; tested at: 100 nM; reference: input RNA pool; reading: higher = stronger binding
Target: RING finger protein unkempt homolog, zinc fingers 1-6, SBP tag (UNK, Homo sapiens, UniProt Q9C0B0, residues 30-357)
Sequence of UniProt Q9C0B0 (30-357, looked up): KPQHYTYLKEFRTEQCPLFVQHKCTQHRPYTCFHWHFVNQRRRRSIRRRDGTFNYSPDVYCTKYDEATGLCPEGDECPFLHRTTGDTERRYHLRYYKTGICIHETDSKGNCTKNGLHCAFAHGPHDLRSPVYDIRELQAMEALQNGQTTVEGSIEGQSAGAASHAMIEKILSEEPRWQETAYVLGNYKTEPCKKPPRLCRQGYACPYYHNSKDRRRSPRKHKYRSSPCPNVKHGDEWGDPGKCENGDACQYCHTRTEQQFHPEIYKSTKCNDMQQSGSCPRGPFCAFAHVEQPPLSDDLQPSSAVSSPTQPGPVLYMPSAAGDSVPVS
Notes: RNA with constant flanks, vertebrate orthologous sites, ends assumed
Constant ends, left off below: GGGAGUUCUACAGUCCGACGAUC … CAACAGAGGAUUGAGCAUCA
Sequence	bound/input enrichment
UGGCGAUGAUUUUUUCCACUGGUUUUUGCUUAAAAGAAGAAGUGGACCCAUGCACAUUUAUAUAGCUUUCUAAUAGCGUUAACCAAUGCCUUUUUAGACAUAUUUUUGAUGUAUAUAUCU	0.951 ratio
UGAAAGUUUUAACCAAGAAUCUGAAGGUAGACAUACAGGACCGUGGUUAUCAUCCUCACUUAGAAAUAGAUGCACACCUUUGUUCUCUAGAAGGAGGAGAGAAGGUAGGGAUGAGUCUUC	1.02 ratio
UGUGGAGGAGGAACCCGCUUACCGCUGCCCGCAUGCAACUGAGGGCCGCUCACCAGCCUGCAGGAGGCCAUAGUAUUUUUUUUCUGCCUCAGAGUCCCCAAAGCCUUCAAGCAGAAGUGG	1.8 ratio
CCCCAGUUUGUAUGUACAUUAUUCAUAUUCCUCUCUGUUUUGUUGGGAAAAAAAGACAUCUUAACCUUCUUUAAGGUUGUUGAUUUAAUUUCAUGUUAUUAGGUUGCAUGAUGUUGCCCU	0.27 ratio
UUACAAUCUUAUACUUAAACUGGUAUUUUCAAACAAUAGCAAACUUUUUUUUUUACAGUUUAGUGUAUUUGGUUUCUACAUGGAAGACUAAACUCAUGCUUAUUGCUAAAACGUGGUCUU	0.674 ratio
AAGAUACUUUAUCCUUCAGGAGAAAUACCAAUGAGCUUUUUUUUGUUUUGUGCAUUUAAUAGAAUUAUUUUAUAUUAAUUGCUUAAUUGUAUGGAGAAACAUAGUUUUGCUCUCAAUAUG	0.24 ratio
UCACUCUGAUAGGAGUGGGUUGUUAUUCGUUUUUUCUUUUCUUUUUUUUUACAUUUUGUAUAGAAACAAAUUCAUUUAAACAAACUUAUUAUUAUUAUUUUUUACAAAAUAUAUAUAUAG	0.538 ratio
AAGAUGGUGGUUGUACAUUAUUUCACUUAGAAAAUAUGAAAACUCAUUUUGUUUUGAAGCUAGGUGUUAAACUGGAAUAGCUAUUACGUUCUUGAAAAUGGGGCAGUUGUGCCCUACCCU	1.02 ratio
GGGACGCUUUGAUGUAAAAAUUGAAGUUAAGAGCUGAUCAUAAGCACAAAUCCUCCCCUCUAGCCAUUUAAUAAGUUAAAAAAUUACAAAAACAAAACCUACUAGUCUUGAACAAACUGU	9.03 ratio
UUUUUAAAGUUUUUUUUUAAUUUAAUUUUCCCUUUUGGGGGUAAAGUUUGCUCUACCAAAUAGUGAUUGUAACAAAUUGAUUUGUUAUGGAUGUUGCUAUAGUGACAUGCAGUUACAUAU	0.794 ratio
CUGGUCUUCCACGUAGGCUCAGCCUCAGAUCUAUAGGAUUUAUGACAAAUGUAUUCUAUCUAGUUAAGUUGAGUUUAUUAUUUUUUUAAUAAGCCUGUAAAUAAAGAUGGCAUCUUCUAC	0.457 ratio
